Assay results pooled from the literature.
Compare with care: the assays were run in different laboratories. ± gives the spread as reported.
Aldo-keto reductase family 1 member A1: Aldo-keto reductase family 1 member A1 (Bos taurus, UniProt Q3ZCJ2)
UniProt Q3ZCJ2, sequence (whole entry, looked up): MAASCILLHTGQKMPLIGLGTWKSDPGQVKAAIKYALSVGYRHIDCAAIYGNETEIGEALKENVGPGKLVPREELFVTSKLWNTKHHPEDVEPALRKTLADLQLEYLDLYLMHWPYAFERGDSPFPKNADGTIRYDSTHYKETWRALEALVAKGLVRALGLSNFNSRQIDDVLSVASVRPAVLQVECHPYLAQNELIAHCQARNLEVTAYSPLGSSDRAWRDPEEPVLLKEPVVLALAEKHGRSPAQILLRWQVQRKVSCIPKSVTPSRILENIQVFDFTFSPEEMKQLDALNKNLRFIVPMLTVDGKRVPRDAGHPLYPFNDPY
SLC51A with OSTβ: Organic solute transporter subunit alpha, with OSTβ (SLC51A, Homo sapiens, UniProt Q86UW1)
UniProt Q86UW1, sequence (whole entry, looked up): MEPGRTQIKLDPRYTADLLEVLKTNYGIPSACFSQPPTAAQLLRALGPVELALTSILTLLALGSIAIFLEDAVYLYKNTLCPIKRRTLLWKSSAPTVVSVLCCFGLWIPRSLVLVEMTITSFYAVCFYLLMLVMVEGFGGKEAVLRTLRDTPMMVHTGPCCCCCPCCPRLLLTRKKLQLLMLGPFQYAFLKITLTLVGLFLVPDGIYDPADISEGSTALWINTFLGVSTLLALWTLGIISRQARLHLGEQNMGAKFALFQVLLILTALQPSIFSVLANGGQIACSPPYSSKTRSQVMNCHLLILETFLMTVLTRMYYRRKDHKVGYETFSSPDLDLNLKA
CNGA1: Cyclic nucleotide-gated channel alpha-1 (CNGA1, Bos taurus, UniProt Q00194)
UniProt Q00194, sequence (whole entry, looked up): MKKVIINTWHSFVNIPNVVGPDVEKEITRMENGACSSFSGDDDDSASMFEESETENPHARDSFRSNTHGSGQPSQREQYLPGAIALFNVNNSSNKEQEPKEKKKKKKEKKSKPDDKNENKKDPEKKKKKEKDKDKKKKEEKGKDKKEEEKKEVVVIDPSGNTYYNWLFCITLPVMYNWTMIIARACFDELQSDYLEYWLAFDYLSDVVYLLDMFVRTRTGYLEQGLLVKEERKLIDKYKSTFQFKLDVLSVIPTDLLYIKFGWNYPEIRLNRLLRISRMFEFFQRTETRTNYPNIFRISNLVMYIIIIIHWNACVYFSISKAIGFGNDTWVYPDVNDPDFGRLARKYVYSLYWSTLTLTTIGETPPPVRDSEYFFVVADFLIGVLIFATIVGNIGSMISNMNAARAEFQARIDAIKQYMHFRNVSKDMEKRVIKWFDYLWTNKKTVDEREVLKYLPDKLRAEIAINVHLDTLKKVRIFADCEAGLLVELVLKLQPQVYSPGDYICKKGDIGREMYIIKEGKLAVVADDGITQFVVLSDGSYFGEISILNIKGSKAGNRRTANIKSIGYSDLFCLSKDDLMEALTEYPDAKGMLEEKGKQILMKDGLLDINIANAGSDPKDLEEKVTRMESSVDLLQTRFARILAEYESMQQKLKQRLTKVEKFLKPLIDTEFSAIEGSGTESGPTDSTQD
PLA2G5: Phospholipase A2 group V (PLA2G5, Homo sapiens, UniProt P39877)
UniProt P39877, sequence (whole entry, looked up): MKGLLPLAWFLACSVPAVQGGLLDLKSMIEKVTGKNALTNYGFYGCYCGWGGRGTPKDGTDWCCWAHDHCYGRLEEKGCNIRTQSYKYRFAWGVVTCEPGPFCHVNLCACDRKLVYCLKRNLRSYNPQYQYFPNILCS
EPHX1: Epoxide hydrolase 1 (EPHX1, Homo sapiens, UniProt P07099)
UniProt P07099, sequence (whole entry, looked up): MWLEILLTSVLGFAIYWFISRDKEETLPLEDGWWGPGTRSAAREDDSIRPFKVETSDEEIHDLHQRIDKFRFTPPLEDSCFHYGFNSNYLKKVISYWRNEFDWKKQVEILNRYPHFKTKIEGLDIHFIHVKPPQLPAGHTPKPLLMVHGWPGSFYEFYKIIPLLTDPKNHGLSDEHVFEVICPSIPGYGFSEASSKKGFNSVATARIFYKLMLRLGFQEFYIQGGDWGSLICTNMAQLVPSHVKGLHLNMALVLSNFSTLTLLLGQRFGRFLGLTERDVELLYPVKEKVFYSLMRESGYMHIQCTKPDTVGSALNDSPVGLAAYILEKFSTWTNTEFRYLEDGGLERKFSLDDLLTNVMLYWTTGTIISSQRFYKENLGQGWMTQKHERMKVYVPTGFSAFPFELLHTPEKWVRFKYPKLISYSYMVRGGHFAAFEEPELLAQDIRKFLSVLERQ
UniProt Q00534, sequence (whole entry, looked up): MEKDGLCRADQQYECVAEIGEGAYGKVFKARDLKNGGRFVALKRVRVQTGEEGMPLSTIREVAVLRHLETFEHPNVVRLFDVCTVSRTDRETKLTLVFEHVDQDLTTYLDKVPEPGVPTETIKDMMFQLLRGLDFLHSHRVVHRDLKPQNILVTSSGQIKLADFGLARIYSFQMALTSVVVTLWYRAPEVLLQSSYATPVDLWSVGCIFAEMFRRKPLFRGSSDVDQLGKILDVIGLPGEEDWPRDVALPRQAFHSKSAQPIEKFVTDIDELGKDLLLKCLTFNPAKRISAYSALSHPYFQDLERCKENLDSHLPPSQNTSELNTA
UniProt Q9GZV9, sequence (whole entry, looked up): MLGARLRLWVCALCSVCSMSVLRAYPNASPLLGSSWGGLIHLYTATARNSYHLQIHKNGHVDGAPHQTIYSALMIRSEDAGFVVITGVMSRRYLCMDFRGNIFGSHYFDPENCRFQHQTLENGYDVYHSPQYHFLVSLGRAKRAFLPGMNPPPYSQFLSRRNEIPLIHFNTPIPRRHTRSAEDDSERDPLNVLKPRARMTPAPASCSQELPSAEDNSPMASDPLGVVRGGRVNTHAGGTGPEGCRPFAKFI
UniProt Q9NRA0, sequence (whole entry, looked up): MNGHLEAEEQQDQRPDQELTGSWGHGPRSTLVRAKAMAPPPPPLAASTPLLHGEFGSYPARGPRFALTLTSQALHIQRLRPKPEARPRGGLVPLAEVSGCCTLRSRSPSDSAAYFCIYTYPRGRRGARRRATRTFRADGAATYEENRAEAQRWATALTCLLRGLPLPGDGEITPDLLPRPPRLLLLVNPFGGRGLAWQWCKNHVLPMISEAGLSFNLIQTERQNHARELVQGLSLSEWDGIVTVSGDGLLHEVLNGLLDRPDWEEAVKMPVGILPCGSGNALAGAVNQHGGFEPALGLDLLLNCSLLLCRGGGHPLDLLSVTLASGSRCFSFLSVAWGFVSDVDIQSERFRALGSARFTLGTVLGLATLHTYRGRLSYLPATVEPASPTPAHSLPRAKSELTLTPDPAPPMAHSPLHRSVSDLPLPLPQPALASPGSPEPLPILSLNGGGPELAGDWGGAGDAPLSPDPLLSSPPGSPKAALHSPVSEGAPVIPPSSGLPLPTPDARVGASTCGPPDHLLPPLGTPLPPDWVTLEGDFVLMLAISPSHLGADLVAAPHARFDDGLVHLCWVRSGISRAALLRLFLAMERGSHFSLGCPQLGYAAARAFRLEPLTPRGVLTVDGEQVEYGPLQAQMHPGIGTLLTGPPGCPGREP
UniProt Q9Y6F1, sequence (whole entry, looked up): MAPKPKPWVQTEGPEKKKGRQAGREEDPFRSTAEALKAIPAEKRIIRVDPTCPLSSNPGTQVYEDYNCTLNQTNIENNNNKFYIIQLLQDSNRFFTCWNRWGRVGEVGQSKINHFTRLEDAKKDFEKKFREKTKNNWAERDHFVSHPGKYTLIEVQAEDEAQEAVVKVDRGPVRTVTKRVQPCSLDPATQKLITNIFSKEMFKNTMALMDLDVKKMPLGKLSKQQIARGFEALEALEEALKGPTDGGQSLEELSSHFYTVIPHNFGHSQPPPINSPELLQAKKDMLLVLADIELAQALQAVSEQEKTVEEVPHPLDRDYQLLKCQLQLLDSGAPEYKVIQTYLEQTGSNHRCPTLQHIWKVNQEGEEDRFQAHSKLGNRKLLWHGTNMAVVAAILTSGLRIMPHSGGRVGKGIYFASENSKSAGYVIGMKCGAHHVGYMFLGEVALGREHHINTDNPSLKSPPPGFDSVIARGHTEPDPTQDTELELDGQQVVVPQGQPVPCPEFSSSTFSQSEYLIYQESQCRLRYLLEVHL

Molecule	target	assay	test system	conditions	scale	endpoint	value
Brc1cccc(SSc2cccc(Br)c2)c1	tubulin	colchicine binding, [3H]colchicine binding		5 µM, 10 min, 37 °C, added: [3H]colchicine 5.0 µM		inhibition	6.6 ± 5%
Cc1ccc(O)c(C=NNC(=S)Nc2ccc(N(C)C)cc2)c1	Aldo-keto reductase family 1 member A1	inhibitor	Bos taurus (calf)	100 µM, added: D-glucuronate substrate		inhibition	27.8%
O=S(=O)(Sc1ccccc1Br)c1ccccc1Br	tubulin	colchicine binding		5 µM, 10 min, 37 °C, added: 5.0 µM [3H]colchicine		inhibition	18 ± 5%
CC(=O)C(C)=O	cysteine peptide Ac-RFAACAA-COOH	DPRA RapidFire-MS/MS		24 h, pH 7.5, added: 5.0 µM cysteine peptide		maximal peptide depletion	-95.5%
O=S(=O)(Sc1cccc(F)c1)c1cccc(F)c1	tubulin	colchicine binding, [3H]colchicine binding		50 µM, 10 min, 37 °C, added: [3H]colchicine 5.0 µM		inhibition	97 ± 0.1%
Cc1ccc(O)c(C=NNC(=S)NC2CCCCC2)c1	Aldo-keto reductase family 1 member A1	inhibitor	Bos taurus (calf)	100 µM, added: D-glucuronate substrate		inhibition	< 50%
Fc1ccccc1SSc1ccccc1F	tubulin	colchicine binding, [3H]colchicine binding		5 µM, 10 min, 37 °C, added: [3H]colchicine 5.0 µM		inhibition	0 ± 4%
CC(=N/N=c1\scc(-c2ccc(Cl)cc2)n1-c1c(C)cccc1C)C12CC3CC(CC(C3)C1)C2	Aldo-keto reductase family 1 member A1	enzyme activity, inhibitor, absorbance		1 mM		inhibition	19.7%
CC(C)(C)c1cnc(CSc2cnc(NC(=O)C3CCN(CC(=O)NCCOCCOCCOCCNc4cccc5c4C(=O)N(C4CCC(=O)NC4=O)C5=O)CC3)s2)o1 (stereo not shown)	CDK6 (Homo sapiens, UniProt Q00534)	probe labeling, KiNativ live-cell profiling	MOLT-4	0.25 µM		inhibition	11.1%
CCc1c(Cl)c(O)c(Cl)c(O)c1C(=O)O[C@H]1[C@H](O)[C@H](OC)[C@H](OC/C2=C\C=C\C[C@H](O)/C(C)=C/[C@H](CC)[C@@H](O[C@@H]3OC(C)(C)[C@@H](OC(=O)C(C)C)[C@H](O)[C@@H]3O)/C(C)=C/C(C)=C/C[C@@H]([C@@H](C)O)OC2=O)O[C@@H]1C	SLC51A with OSTβ	DHEAS uptake, inhibitor	Flp-In-293 expressing OSTα/β	100 µM, 30 s, co-incubation only, added: DHEAS 20 µM		inhibition	> 80%
Cc1ccc(O)c(C=NNC(=S)Nc2ccc(Cl)cc2)c1	Aldo-keto reductase family 1 member A1	inhibitor	Bos taurus (calf)	100 µM, added: D-glucuronate substrate		inhibition	35.1%
Fc1ccc(SSc2ccc(F)cc2)cc1	tubulin	colchicine binding, [3H]colchicine binding		50 µM, 10 min, 37 °C, added: [3H]colchicine 5.0 µM		inhibition	17 ± 4%
O=c1c(-c2ccc(O)cc2)coc2cc(O)cc(O)c12	CNGA1	cGMP-activated current, closed-channel blocker, inside-out patch clamp	Xenopus oocytes	concentration not given, 1 min preapplication, added: saturating cGMP		inhibition	98 ± 3%
CCCCCCCCCCCCCCC(=O)C(=O)N[C@H](C(=O)NCC(=O)OC(C)(C)C)C(C)C	PLA2G5	enzyme activity, inhibitor, mixed micelle		0.091 mole fraction		inhibition	~80%
Cc1ccc(O)c(C=NNC(=S)Nc2ccc(Br)cc2)c1	Aldo-keto reductase family 1 member A1	inhibitor	Bos taurus (calf)	100 µM, added: D-glucuronate substrate		inhibition	23.8%
[H]/N=C(/N)N1CCC[C@H]1c1nc(-c2ccc(OCCC=CCCCC)c(C(F)(F)F)c2)no1	SPHK2 (Homo sapiens, UniProt Q9NRA0)	enzyme activity, inhibitor, radiometric		0.3 µM		inhibition	54%
Clc1ccccc1SSc1ccccc1Cl	tubulin	colchicine binding, [3H]colchicine binding		50 µM, 10 min, 37 °C, added: [3H]colchicine 5.0 µM		inhibition	36 ± 2%
O=C(O)c1ccc(O)cc1	cysteine peptide Ac-RFAACAA-COOH	peptide depletion, DPRA RapidFire-MS/MS		24 h, pH 7.5, room temperature, added: 5.0 µM cysteine peptide		IC50	127 µM
C/C(=N/N=c1/scc(-c2ccc(Br)cc2)n1-c1ccccc1)c1ccc2c(c1)OCCO2	Aldo-keto reductase family 1 member A1	enzyme activity, inhibitor, absorbance		1 mM		inhibition	23.7%
O/N=C/C1=C(/C=C/c2ccc(F)cc2)CCC1	Fibroblast growth factor 23 (Homo sapiens, UniProt Q9GZV9)	ERK reporter gene, inhibitor	HEK293T expressing FGFR and α-Klotho	10 µM, added: FGF-23		inhibition	100%

Molecule	target	assay	test system	conditions	scale	endpoint	value
O=CN/C=C/c1cc(O)ccc1O	CNGA1	cGMP-activated current, inhibitor, inside-out patch clamp	Xenopus oocytes	25 µM, with ATP, added: cGMP 2 mM		inhibition	no effect
Cc1ccc(O)c(C=NNC(=S)Nc2ccc(F)cc2F)c1	Aldo-keto reductase family 1 member A1	inhibitor	Bos taurus (calf)	100 µM, added: D-glucuronate substrate		inhibition	33.6%
C/C(=N/N=c1/scc(-c2ccc(Cl)cc2)n1-c1ccc(F)cc1)c1ccc2c(c1)NC(=O)CO2	Aldo-keto reductase family 1 member A1	enzyme activity, inhibitor, absorbance		1 mM		inhibition	22.6%
GMGGRGLLL	Qa-1 (mouse), soluble	binding, SPR competition	peptide	20 µM, 25 °C, 2% DMSO, unit not given	reference: maximal blocking by 20 µM Qdm	inhibition	0.74
C/C(=N/N=c1/scc(-c2ccc([N+](=O)[O-])cc2)n1-c1ccc(F)cc1)c1ccc2c(c1)OCCO2	Aldo-keto reductase family 1 member A1	enzyme activity, inhibitor, absorbance		1 mM		inhibition	4.5%
O=C1NCC(c2ccccc2)C(O)c2ccccc21 (racemic)	PARP3 (Homo sapiens, UniProt Q9Y6F1)	enzyme activity, inhibitor, chemiluminescent		10 µM		inhibition	~91%
CCCCCCCCCCCCNS(C)(=O)=O	EPHX1	enzyme activity, inhibitor, fluorescence		100 µM		inhibition	40%
CCCC[C@H](NC(=O)C(=O)CCCCc1ccc(OC)cc1)C(=O)N[C@@H](C)C(=O)OC(C)(C)C	PLA2G5	enzyme activity, mixed micelle		0.091 mole fraction		inhibition	49.9 ± 0.8%
O=S(=O)(Sc1ccc(F)cc1)c1ccc(F)cc1	tubulin	colchicine binding		5 µM, 10 min, 37 °C, added: 5.0 µM [3H]colchicine		inhibition	52 ± 5%
C/C(=N/N=c1/scc(-c2ccc(Br)cc2)n1-c1ccccc1)c1ccc2c(c1)NC(=O)CO2	Aldo-keto reductase family 1 member A1	enzyme activity, inhibitor, absorbance		1 mM		inhibition	22.6%
C[C@H](CCC(=O)NCCS(=O)(=O)O)[C@H]1CC[C@H]2[C@@H]3CC[C@@H]4C[C@H](OS(=O)(=O)O)CC[C@]4(C)[C@H]3CC[C@]12C	SLC51A with OSTβ	DHEAS uptake, inhibitor	Flp-In-293 expressing OSTα/β	100 µM, 30 s, preincubation and co-incubation, added: DHEAS 20 µM		inhibition	~20%
COc1cccc(-n2c(-c3ccc([N+](=O)[O-])cc3)cs/c2=N/N=C\c2c[nH]c3ccccc23)c1	Aldo-keto reductase family 1 member A1	enzyme activity, inhibitor, absorbance		1 mM		inhibition	12.4%
Brc1ccc(SSc2ccc(Br)cc2)cc1	tubulin	colchicine binding, [3H]colchicine binding		50 µM, 10 min, 37 °C, added: [3H]colchicine 5.0 µM		inhibition	0 ± 2%
C/C(=N/N=c1/scc(-c2ccc([N+](=O)[O-])cc2)n1-c1ccccc1)c1ccc2c(c1)NC(=O)CO2	Aldo-keto reductase family 1 member A1	enzyme activity, inhibitor, absorbance		1 mM		inhibition	31.4%
O=c1c(-c2ccc(O)cc2)coc2cc(O)cc(O)c12	CNGA1	ion current, inside-out patch clamp	Xenopus oocytes	100 µM, added: cGMP 2 mM		inhibition	45.8 ± 5.7%
COc1cccc(NC(=S)NN=Cc2cc(C)ccc2O)c1	Aldo-keto reductase family 1 member A1	inhibitor	Bos taurus (calf)	100 µM, added: D-glucuronate substrate		inhibition	38.2%
C/C(=N/N=c1/scc(-c2ccc([N+](=O)[O-])cc2)n1Cc1ccccc1)c1ccc2c(c1)OCCO2	Aldo-keto reductase family 1 member A1	enzyme activity, inhibitor, absorbance		1 mM		inhibition	23.6%
CCCCCCCCCCCCNC(=O)C(F)(F)F	EPHX1	enzyme activity, inhibitor, fluorescence		100 µM		inhibition	0%
O=C(O)c1cc(N(Cc2ccccc2O)Cc2cc(O)ccc2O)ccc1O	CNGA1	cGMP-activated current, inhibitor, inside-out patch clamp	Xenopus oocytes	10 µM, no ATP, added: cGMP 2 mM		inhibition	no effect
CCCCCCCC(=O)OC[C@H](CO)OC(=O)CCCCCCC	CNGA1	cGMP-activated current, inside-out patch, Xenopus oocytes		0.5 µM, added: cGMP 10 µM		inhibition	93%

Some of these lines once more:
Molecule	target	assay	test system	conditions	scale	endpoint	value
C/C(=N/N=c1/scc(-c2ccc(Br)cc2)n1-c1ccccc1)c1ccc2c(c1)OCCO2	Aldo-keto reductase family 1 member A1	enzyme activity, inhibitor, absorbance		1 mM		inhibition	23.7%
O/N=C/C1=C(/C=C/c2ccc(F)cc2)CCC1	Fibroblast growth factor 23 (Homo sapiens, UniProt Q9GZV9)	ERK reporter gene, inhibitor	HEK293T expressing FGFR and α-Klotho	10 µM, added: FGF-23		inhibition	100%
